Measured values gathered from unrelated publications.
A part holds a random share of what one study measured. Changes are numbered by the printed parent chain.

Study 1
Target: Sal-like protein 4, full length isoform B (SALL4, Homo sapiens, UniProt Q9UJQ4-2, residues 1-616)
Technique: universal PBM
Form: double-stranded DNA, one strand shown
Medium: in vitro
Concentration: not given
Notes: 8-mer, flanks averaged, mean of replicates
Direction: higher = stronger binding
Target sequence (chain): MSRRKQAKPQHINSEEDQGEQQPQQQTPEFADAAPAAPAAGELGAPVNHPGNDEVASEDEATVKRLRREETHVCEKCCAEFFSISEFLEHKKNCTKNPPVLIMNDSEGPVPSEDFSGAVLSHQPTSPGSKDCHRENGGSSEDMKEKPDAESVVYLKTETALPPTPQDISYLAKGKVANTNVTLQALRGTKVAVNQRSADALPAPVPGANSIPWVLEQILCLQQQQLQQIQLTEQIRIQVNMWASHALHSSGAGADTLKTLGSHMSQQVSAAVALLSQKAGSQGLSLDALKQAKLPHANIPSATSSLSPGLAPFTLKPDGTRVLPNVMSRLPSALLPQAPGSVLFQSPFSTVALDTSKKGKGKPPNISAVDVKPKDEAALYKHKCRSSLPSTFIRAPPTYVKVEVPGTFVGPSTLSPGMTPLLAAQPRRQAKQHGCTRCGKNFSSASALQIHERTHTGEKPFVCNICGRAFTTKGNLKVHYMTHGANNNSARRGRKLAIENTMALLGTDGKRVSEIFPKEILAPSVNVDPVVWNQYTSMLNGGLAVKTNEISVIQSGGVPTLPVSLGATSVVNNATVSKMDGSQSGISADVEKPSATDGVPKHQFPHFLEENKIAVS
Sequence | E-score
GACGCTGA | -0.136
AGGGGTCC | -0.339
ATTTTAAC | 0.204
AGGCTGTC | -0.224
CGCGGGTA | -0.187
CTATGCGC | -0.0269
AGTCCAAT | 0.0829
GCCCTAAA | -0.0899
ATGTCGAG | -0.0545
CAATCTCC | -0.0853
AATGATGC | 0.0786
CATCCCAA | 0.155
GTTAAACA | 0.195
ACCTGAAC | -0.0991
ACACGCAA | 0.0644
ACTGAATA | 0.261
AATACGAT | 0.3
TGCCCTAA | -0.1
AAACGACA | 0.00392

Study 2
Target: Histone acetyltransferase KAT6A, winged helix 2, GST fusion (KAT6A, Homo sapiens, UniProt Q92794, residues 85-181)
Technique: protein binding microarray
Form: double-stranded DNA, one strand shown
Medium: in vitro
Concentration: not given
Notes: 8-mer, flanks averaged, mean of 2 arrays, mostly near background
Reference: not given
Direction: higher = stronger binding
Residues (chain): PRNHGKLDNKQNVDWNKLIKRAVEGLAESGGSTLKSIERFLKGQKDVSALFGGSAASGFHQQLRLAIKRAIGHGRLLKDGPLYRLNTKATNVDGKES
Sequence | E-score
CCAGTATA | -0.0429
CGGGACAA | -0.0325
AGCACTAG | -0.00733
GTTTATTA | 0.0947
CAATATGG | -0.00523
AAAGCTCG | 0.0736
GATATGCC | -0.0461
AGCCATAC | -0.0949
CGTAGACA | -0.353
TGGTTACA | -0.103
CCGATGAG | 0.0522
GGATGTAA | 0.0692
GGACACAA | 0.112
GGCTACAA | 0.135
ACCCTGTA | 0.0646
CAAGTACC | -0.194
CTAGGTAA | -0.253
ATAGATCC | -0.103

Study 3
Target: CREB3L2, bZIP domain (human)
Technique: DHFR protein complementation
Medium: yeast
Notes: single substitutions, most at no-binding floor
Reference: wild-type JUN-FOS pair
Direction: higher = stronger binding
Starting sequence: JUN, bZIP domain (human); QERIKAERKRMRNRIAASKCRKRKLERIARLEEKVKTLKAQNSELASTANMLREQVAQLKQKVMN; partner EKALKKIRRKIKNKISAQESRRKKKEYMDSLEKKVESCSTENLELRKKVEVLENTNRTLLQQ
Variant | binding fitness
S47W | -1.42 natural log
V56R | -1.45 natural log
L38G | -1.52 natural log
T37Q | -1.54 natural log
E54A | -1.53 natural log
E44P | -1.5 natural log
L38R | -1.51 natural log
E33R | -1.48 natural log
L38W | -1.55 natural log
A40K | -1.43 natural log
K39I | -1.42 natural log
K39V | -1.47 natural log
R30A | -1.34 natural log
R30L | -1.46 natural log
Q55T | -1.61 natural log
R53D | -1.48 natural log
E54H | -1.26 natural log

Study 4
Target: RNA binding protein fox-1 homolog 2, RRM domain, GST-SBP tag (RBFOX2, Homo sapiens, UniProt O43251-10, residues 100-194)
Technique: RNA Bind-n-Seq
Form: RNA
Medium: in vitro
Concentration: 365 nM
Notes: natural RNA segment, single round, ends assumed
Reference: no-protein control
Direction: higher = stronger binding
All sequences stand within: GGGAGUUCUACAGUCCGACGAUC … UGGAAUUCUCGGGUGCCAA
Target sequence (chain): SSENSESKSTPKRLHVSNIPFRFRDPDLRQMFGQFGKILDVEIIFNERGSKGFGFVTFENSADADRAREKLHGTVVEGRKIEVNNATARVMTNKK
Sequence | RBNS enrichment (R)
AGGCAUCUCAAAUCCACUGACAGAUAAGAAAACCGCGUUAGAGGGAAAGUCACCUCUGCUAUUGUAGAAAGUGGCAGAAUAUCCAAACUUAACUCUAGCUUCCAUGUCUG | 0.289
UUGUAUUCCAAACGUGUUUACAGGUUCUCUUAAGCAAUGUUGUAUUUGCAGGCUUUUCUGAAUACCAAAUCUGCUUUUUGUAAAGCGUAAAAACAUCACAAAGUAGGUCA | 0.32
UUAUUUAUUCUUGUUUAUUCAAAUGACUGCAAUAACAAUGAUUCAUUCAUUAAUGUUAAGGCUAAUACAUUUAAGAUCUUGUUUAAACAAUGUUUCUUCUGCAACUGGCU | 0.418
GGAAAGGAUGGUUUACAUAGCAGUUCCAGCCUCCUUUUGCUUUGGCCAGUUGGCCUUCUCACUUUGAUAGUUUAACUCAGGUACCCAGUCUUCACUCCAUCCCCAGGUGC | 0.34
UCAACAGUAAGCAGCACCUCCAAGACUGUCUCCUUUUGGCCAAUAUCAUAAGAUGGACGCCAUAAUCCUGAGGCCUCCUAGAGGCUGAGGGGGCAACGGUGUGAUCCAGC | 0.228
GUAGAUGGAGAGAAAGUCAGAAAGAGGCAGCAGGAGAGAGGUAUACUUGGGACCAGAUCAGCUCUGCAUCCUUCAUUCUUCCCUCUGUCUCUAUUACGCAAUGUUCCGAA | 0.402
GGUGCCCUCUGUAGGCCUUCACACAGGGAAGGAAGCCCUACCCUUUCAACUCCUGUUGGAGUGAGAGUUUCCUGUUCUGAUUCCACUGUGGCCAACCCAAUAAUUCUGUC | 0.219
CCUAGCAAUAAGGAGCUCUGGAGAGCCUGCACCUGCCUCCCGCUCGCCUAUAUCUGCUGCCCAGAGGCCUGUCUCGCACAGGGGUCUCGCCACUGCCAAAGACUCCCAGG | 2.12
UAUUUUCCAGGGAGCUGAUAAAGCAGGAGAACUGUUGCUGCAUGUUUUCUAUUUGGACUCCGUCACAAUAUGGUAGGAUAUCCCUCACCAACUCCCGACACUCAGCAGAC | 1.06
CUGUAUGAAUGCAUGGCAUGAGACAACUAAUUUAAGAGACUUUUAUAAAUAAAGUUUGCAUUAACUAUACCCAUUUCCCAAAAUGCUCUGGGAGUUCUGGGCAACUAUUU | 18.8
GAUGAAAACGGAGAUGGGGAAGUGGACUUCAAGGAGUAUGUUGUGCUGGUGGCUGCUCUCACAGUGGCUUGUAACAACUUCUUCUGGGAGACCAGUUGAGCACAGUCUGU | 0.31
UUAGUGGGAAAACGACUUCUGUUUUGACAUGUAGAGUUUGAAGAUUAGGAGAUUGACAGAUGAUGUUGUCUGACAGGUGGUUGGCUGUCCCAGAGAGAGAUAGAGACUCC | 0.441

Study 5
Target: ABI1, truncated, D143A, DHFR fusion (Arabidopsis thaliana)
Technique: DHFR PCA, deep sequencing
Medium: yeast
Notes: methotrexate growth selection, single substitutions
With: (+)-ABA 0.032 µM
Reference: wild-type fitted maximum
Direction: higher = stronger binding
Starting sequence: PYL1, truncated, DHFR fusion (Arabidopsis thaliana); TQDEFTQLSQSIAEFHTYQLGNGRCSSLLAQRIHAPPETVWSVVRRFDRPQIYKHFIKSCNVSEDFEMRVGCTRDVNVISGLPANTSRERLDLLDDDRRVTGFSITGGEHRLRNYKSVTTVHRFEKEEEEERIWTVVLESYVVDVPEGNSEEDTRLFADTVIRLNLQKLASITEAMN; partner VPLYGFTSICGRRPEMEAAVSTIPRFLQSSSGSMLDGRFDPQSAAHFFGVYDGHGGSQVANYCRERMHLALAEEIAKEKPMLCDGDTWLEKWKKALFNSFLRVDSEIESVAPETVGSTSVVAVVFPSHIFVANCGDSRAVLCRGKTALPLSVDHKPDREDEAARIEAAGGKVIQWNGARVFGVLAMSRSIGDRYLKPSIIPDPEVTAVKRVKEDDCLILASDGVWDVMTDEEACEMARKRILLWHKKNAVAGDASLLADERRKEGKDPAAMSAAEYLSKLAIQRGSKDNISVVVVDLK
Variant | relative binding score [%]
D75H | 18.4
C25F | 2.2
S87T | 36.2
Q10D | 50
V70H | 5.23
R46A | 12.6
G21T | 28.2
V136K | 2.5
T73K | 4.59
D92V | 6.99
G108D | 4.54
H16I | 0.461
K168M | 5.98
G102T | -0.439
R123Y | 5.27
R32Q | 14.8

Study 6
Target: CCNA2, cyclin fold, Cln2 fusion (human)
Technique: yeast growth competition, sequencing
Medium: yeast
Notes: weak parent motif
Reference: not given
Direction: higher = stronger binding
Starting sequence: EXO1 docking peptide (human); KPECGRVQRAIFQ
Variant | normalised enrichment score
E3A | 0.891
V7A | 0.559
F12A | 0.37
K1A | 0.562
I11A | 0.204
R9A | 0.239
